Results gathered from unrelated publications.
A part holds a random share of what one study measured.
Chain of UniProt Q7KZI7 (whole entry, looked up): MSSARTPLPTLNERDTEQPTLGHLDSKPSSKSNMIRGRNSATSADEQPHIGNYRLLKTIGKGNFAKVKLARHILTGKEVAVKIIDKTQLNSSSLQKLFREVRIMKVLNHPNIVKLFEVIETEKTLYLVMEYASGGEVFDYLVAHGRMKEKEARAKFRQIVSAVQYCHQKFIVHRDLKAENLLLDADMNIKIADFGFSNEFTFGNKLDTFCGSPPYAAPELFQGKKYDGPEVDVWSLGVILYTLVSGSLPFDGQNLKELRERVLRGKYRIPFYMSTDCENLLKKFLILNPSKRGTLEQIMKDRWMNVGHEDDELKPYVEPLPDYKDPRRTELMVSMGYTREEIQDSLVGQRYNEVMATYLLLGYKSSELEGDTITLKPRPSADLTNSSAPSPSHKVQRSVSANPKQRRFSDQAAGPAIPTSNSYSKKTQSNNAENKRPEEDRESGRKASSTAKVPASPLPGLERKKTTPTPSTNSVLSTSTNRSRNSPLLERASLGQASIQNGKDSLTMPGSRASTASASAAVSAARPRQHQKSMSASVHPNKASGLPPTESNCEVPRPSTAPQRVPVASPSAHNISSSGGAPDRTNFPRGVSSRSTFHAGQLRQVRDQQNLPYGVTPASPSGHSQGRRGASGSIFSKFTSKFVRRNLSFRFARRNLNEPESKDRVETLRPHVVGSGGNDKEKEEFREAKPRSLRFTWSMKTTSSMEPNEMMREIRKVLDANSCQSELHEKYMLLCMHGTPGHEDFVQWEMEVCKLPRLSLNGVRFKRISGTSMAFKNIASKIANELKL
Chain of UniProt Q6PHR2 (whole entry, looked up): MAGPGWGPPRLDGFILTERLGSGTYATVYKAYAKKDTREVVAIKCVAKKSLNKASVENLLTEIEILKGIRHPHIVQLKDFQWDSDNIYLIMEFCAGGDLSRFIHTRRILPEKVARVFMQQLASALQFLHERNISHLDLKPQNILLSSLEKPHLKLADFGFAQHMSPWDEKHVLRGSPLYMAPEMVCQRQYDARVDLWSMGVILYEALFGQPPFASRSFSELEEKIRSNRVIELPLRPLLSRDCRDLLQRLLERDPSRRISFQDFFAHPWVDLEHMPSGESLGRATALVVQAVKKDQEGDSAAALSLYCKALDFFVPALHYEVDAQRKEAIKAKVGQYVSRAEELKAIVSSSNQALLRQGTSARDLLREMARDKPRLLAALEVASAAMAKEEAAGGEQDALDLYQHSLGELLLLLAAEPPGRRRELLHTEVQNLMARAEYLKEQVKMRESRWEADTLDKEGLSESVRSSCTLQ
Chain of UniProt Q8IVH8 (whole entry, looked up): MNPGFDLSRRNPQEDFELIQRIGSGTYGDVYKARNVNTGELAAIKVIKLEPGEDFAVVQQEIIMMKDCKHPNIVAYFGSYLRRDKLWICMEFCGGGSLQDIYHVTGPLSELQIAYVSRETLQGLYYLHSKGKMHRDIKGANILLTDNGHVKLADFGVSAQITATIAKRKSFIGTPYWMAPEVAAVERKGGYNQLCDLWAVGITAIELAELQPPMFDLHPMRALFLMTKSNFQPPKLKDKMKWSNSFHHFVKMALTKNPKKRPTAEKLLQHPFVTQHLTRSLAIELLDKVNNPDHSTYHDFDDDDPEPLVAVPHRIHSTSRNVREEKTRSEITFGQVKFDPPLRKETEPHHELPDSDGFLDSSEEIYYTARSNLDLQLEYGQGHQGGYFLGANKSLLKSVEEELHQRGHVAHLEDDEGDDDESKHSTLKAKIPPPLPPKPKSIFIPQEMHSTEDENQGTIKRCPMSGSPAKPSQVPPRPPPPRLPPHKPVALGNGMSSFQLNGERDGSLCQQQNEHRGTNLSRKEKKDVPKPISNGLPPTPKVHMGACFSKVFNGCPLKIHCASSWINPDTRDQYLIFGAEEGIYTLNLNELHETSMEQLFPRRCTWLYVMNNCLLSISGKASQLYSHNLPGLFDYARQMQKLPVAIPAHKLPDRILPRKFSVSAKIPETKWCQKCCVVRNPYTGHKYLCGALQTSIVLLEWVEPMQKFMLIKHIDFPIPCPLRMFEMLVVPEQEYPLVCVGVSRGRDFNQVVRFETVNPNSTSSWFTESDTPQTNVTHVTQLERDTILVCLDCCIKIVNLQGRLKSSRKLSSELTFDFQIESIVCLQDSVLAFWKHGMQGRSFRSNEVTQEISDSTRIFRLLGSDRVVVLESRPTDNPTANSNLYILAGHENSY
Chain of UniProt P53671 (whole entry, looked up): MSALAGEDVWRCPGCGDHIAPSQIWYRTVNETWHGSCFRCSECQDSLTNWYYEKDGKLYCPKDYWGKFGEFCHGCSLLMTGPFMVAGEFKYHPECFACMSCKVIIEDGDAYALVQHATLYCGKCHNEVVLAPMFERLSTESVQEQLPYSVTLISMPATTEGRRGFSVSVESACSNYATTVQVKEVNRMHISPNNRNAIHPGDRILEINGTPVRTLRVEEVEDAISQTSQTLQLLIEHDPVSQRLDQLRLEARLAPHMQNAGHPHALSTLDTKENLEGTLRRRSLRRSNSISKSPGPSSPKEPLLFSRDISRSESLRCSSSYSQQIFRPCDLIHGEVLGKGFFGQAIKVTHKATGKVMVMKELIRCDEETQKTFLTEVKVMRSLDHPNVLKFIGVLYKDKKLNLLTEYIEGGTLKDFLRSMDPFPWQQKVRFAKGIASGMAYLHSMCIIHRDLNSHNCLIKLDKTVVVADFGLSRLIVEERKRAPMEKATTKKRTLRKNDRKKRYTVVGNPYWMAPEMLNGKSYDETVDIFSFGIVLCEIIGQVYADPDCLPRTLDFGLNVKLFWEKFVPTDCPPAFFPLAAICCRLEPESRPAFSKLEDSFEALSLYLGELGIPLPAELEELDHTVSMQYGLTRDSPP
Chain of UniProt Q15759 (whole entry, looked up): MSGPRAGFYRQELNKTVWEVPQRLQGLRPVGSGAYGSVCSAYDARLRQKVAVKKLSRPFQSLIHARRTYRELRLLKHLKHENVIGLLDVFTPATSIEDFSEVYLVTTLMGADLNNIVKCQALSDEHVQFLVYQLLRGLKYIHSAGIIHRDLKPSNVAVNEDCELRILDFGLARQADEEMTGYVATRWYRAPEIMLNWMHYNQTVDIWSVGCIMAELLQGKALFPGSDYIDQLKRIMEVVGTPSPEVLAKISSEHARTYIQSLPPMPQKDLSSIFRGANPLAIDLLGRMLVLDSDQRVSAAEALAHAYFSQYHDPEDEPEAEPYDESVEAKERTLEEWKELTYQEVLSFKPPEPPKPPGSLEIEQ
Chain of UniProt P24723 (whole entry, looked up): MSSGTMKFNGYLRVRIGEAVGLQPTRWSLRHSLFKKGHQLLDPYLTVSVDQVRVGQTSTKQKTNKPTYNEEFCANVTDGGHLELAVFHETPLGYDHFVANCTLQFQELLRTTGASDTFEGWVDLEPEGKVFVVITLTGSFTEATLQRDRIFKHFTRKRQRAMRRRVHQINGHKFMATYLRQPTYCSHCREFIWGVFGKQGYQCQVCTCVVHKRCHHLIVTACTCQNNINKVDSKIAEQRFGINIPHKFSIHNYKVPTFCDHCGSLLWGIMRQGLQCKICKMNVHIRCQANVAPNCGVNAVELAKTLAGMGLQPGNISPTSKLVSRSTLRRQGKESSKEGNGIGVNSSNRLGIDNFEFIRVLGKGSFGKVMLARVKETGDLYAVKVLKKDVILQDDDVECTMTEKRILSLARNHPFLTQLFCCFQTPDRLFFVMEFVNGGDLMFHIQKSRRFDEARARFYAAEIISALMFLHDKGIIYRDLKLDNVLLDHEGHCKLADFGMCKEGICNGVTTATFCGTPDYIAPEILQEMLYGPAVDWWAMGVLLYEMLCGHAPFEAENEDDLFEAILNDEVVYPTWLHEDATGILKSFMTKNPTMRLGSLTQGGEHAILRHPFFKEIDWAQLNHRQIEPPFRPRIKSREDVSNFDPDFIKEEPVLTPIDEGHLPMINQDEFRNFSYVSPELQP

Sample 1
Structure (SMILES): N#Cc1c(Oc2ccc(F)c(NC(=O)Cc3cccc(C(F)(F)F)c3)c2)ccc2nc(NC(=O)C3CC3)sc12
Target: Receptor-interacting serine/threonine-protein kinase 3 (RIPK3, Homo sapiens, UniProt Q9Y572)
Chain of UniProt Q9Y572 (whole entry, looked up): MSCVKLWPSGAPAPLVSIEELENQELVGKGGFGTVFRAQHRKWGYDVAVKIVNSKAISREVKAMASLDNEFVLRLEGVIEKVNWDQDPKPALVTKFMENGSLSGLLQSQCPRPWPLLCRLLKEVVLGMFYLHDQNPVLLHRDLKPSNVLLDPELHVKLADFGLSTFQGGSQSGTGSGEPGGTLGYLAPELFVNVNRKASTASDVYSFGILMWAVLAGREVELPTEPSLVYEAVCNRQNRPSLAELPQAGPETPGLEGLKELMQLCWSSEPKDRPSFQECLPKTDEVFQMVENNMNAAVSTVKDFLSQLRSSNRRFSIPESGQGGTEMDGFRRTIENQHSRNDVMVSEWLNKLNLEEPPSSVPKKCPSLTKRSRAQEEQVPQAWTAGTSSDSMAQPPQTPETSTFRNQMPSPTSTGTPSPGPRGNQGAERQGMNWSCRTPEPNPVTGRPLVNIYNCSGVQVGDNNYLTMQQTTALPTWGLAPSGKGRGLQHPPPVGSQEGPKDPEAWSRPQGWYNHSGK
Observed: kinase activity
Mode: inhibitor
Technique: ADP-Glo
Time: 1 h
conditions | inhibition
250 nM | 89.3%
62.5 nM | 66.8%
31.25 nM | 55.4%
500 nM | 92.5%
125 nM | 86.2%

Sample 2
Compound: CCCOc1ccc([C@H]2[C@H](C(=O)O)[C@@H](c3ccc4c(c3)OCO4)CN2CC(=O)Nc2c(CC)cccc2CC)cc1
Observed: cell-free assay
Technique: competition with immobilised ligand
Concentration: 1 µM
target | remaining binding [%]
Non-receptor tyrosine-protein kinase TYK2, JH1 (TYK2, Homo sapiens, UniProt P29597) | 51
Serine/threonine-protein kinase PLK4 (PLK4, Homo sapiens, UniProt O00444) | 78
Epidermal growth factor receptor (EGFR, Homo sapiens, UniProt P00533, L861Q) | 100
Tyrosine-protein kinase ABL1, phosphorylated (ABL1, Homo sapiens, UniProt P00519, H396P) | 81
Mitogen-activated protein kinase kinase kinase 2 (MAP3K2, Homo sapiens, UniProt Q9Y2U5) | 82
Calcium/calmodulin-dependent protein kinase type II subunit beta (CAMK2B, Homo sapiens, UniProt Q13554) | 99
Epidermal growth factor receptor (EGFR, Homo sapiens, UniProt P00533, A750P/del747-749) | 100
Myosin light chain kinase (MYLK3, Homo sapiens, UniProt Q32MK0) | 86
Phosphatidylinositol 4,5-bisphosphate 3-kinase catalytic subunit alpha isoform (PIK3CA, Homo sapiens, UniProt P42336, Q546K) | 69
Serine/threonine-protein kinase ULK3 (ULK3, Homo sapiens, UniProt Q6PHR2) | 72
Serine/threonine-protein kinase TAO3 (TAOK3, Homo sapiens, UniProt Q9H2K8) | 81
SNF-related serine/threonine-protein kinase (SNRK, Homo sapiens, UniProt Q9NRH2) | 84
Protein-tyrosine kinase 6 (PTK6, Homo sapiens, UniProt Q13882) | 84

Sample 3
SMILES: O=C(Nc1cnn(-c2csc(C(=O)NC3COC3)c2)c1)Nc1c(F)cccc1Cl
Observed: enzyme activity
Concentration: 5 µM
target | test | scale | remaining activity
Tau-tubulin kinase 1 (TTBK1, Homo sapiens, UniProt Q5TCY1) | – | reference: untreated control | 80.8%
Protein kinase C eta type (PRKCH, Homo sapiens, UniProt P24723) | – | reference: untreated control | 97.4%
Mitogen-activated protein kinase kinase kinase kinase 3 (MAP4K3, Homo sapiens, UniProt Q8IVH8) | – | reference: untreated control | 99.2%
Serine/threonine-protein kinase 24 (STK24, Homo sapiens, UniProt Q9Y6E0) | – | reference: untreated control | 81.2%
Mitogen-activated protein kinase 11 (MAPK11, Homo sapiens, UniProt Q15759) | – | reference: untreated control | 88.8%
Activated CDC42 kinase 1 (TNK2, Homo sapiens, UniProt Q07912) | – | reference: untreated control | 85.9%
Dual specificity mitogen-activated protein kinase kinase 4 (MAP2K4, Homo sapiens, UniProt P45985) | inhibitor | – | 133%
Serine/threonine-protein kinase MARK2 (MARK2, Homo sapiens, UniProt Q7KZI7) | – | reference: untreated control | 89.4%
Serine/threonine-protein kinase WNK2 (WNK2, Homo sapiens, UniProt Q9Y3S1) | – | reference: untreated control | 88.7%
LIM domain kinase 2 (LIMK2, Homo sapiens, UniProt P53671) | inhibitor | – | 94%
Mitogen-activated protein kinase kinase kinase 5 (MAP3K5, Homo sapiens, UniProt Q99683) | – | reference: untreated control | 89.4%

Sample 4
Target: Calcium/calmodulin-dependent protein kinase type II subunit alpha (CAMK2A, Homo sapiens, UniProt Q9UQM7)
Chain of UniProt Q9UQM7 (whole entry, looked up): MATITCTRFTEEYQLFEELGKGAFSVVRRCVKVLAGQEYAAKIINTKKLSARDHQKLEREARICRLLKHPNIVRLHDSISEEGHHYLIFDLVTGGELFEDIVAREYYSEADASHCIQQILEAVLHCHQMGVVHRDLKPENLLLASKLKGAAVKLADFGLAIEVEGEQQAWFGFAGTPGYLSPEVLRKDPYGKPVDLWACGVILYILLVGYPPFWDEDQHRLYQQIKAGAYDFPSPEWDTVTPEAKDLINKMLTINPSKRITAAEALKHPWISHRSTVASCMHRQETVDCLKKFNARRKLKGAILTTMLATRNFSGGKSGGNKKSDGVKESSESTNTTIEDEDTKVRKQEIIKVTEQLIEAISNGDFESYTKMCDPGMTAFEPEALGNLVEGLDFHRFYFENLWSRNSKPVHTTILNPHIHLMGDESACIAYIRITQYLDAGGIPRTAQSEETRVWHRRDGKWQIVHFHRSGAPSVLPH
Observed: enzyme activity
Mode: inhibitor
Concentration: 10 µM
SMILES | inhibition
Oc1ccc2c(c1)OCO2 | 31%
CO[C@@H]1[C@@H](O[C@@H]2O[C@H](C)[C@@H](O[C@H]3C[C@@](C)(O)[C@@H](O)[C@H](C)O3)[C@H](N(C)C)[C@H]2O)[C@@H](CC=O)C[C@@H](C)[C@@H](O[C@H]2CC[C@H](N(C)C)[C@@H](C)O2)/C=C/C=C/C[C@@H](C)OC(=O)C[C@H]1OC(C)=O | -17%
CO[C@H]1/C=C/O[C@@]2(C)Oc3c(C)c(O)c4c(O)c(c5c(nc6cc(C)ccn65)c4c3C2=O)NC(=O)/C(C)=C\C=C\[C@H](C)[C@H](O)[C@@H](C)[C@@H](O)[C@@H](C)[C@H](OC(C)=O)[C@@H]1C | -2%
CCC1(c2ccccc2)NC(=O)N(C)C1=O (centres unmarked) | -7%
COc1ccc2c(OC)c3ccoc3nc2c1OC | -15%
CC(=O)O[C@@H]1C[C@H](O)[C@@]23CO[C@@H](O)[C@]1(C)[C@@H]2C[C@@H](O)[C@]1(C)[C@@H]3C(=O)[C@H](OC(C)=O)[C@@]2(C)[C@H](c3ccoc3)C[C@H]3O[C@]321 | 24%
OC[C@H]1O[C@@H](Oc2cc3c(O)cc(O)cc3[o+]c2-c2ccc(O)c(O)c2)[C@H](O[C@@H]2OC[C@@H](O)[C@H](O)[C@H]2O)[C@@H](O)[C@@H]1O | 8%
NC(=O)c1ncn([C@@H]2O[C@H](CO)[C@@H](O)[C@H]2O)c1O | -12%
O=S(=O)(O)c1ccc2[nH]c(-c3ccccc3)nc2c1 | -2%

Repeated from above (sample 3):
target | test | scale | remaining activity
Mitogen-activated protein kinase kinase kinase 5 (MAP3K5, Homo sapiens, UniProt Q99683) | – | reference: untreated control | 89.4%
Mitogen-activated protein kinase 11 (MAPK11, Homo sapiens, UniProt Q15759) | – | reference: untreated control | 88.8%
Mitogen-activated protein kinase kinase kinase kinase 3 (MAP4K3, Homo sapiens, UniProt Q8IVH8) | – | reference: untreated control | 99.2%
Protein kinase C eta type (PRKCH, Homo sapiens, UniProt P24723) | – | reference: untreated control | 97.4%
Dual specificity mitogen-activated protein kinase kinase 4 (MAP2K4, Homo sapiens, UniProt P45985) | inhibitor | – | 133%
Serine/threonine-protein kinase WNK2 (WNK2, Homo sapiens, UniProt Q9Y3S1) | – | reference: untreated control | 88.7%
